Experimental data from different studies.
Each numbered part is a random draw from the data of one study; scales do not carry over between parts.
Chain of UniProt P17106 (whole entry, looked up): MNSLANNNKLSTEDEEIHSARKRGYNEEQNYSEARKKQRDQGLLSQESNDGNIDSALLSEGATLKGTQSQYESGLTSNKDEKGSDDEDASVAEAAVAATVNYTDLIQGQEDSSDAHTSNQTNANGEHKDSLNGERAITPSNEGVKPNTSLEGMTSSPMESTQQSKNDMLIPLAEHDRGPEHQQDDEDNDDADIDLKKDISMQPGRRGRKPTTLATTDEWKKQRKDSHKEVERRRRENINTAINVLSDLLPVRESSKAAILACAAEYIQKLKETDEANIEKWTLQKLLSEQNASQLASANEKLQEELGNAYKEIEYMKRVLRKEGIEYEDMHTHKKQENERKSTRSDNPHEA

Block 1
Target: Histone acetyltransferase KAT6A, winged helix 1, GST fusion (KAT6A, Homo sapiens, UniProt Q92794, residues 1-85)
Method: protein binding microarray
Form: double-stranded DNA, one strand shown
Medium: in vitro
Tested at: not given
Notes: 8-mer, flanks averaged, mean of 2 arrays, mostly near background
Relative to: not given
Reading: higher = stronger binding
Endpoint: E-score
Target sequence (chain): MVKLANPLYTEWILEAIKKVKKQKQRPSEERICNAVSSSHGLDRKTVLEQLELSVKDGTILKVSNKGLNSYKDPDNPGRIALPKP
CACCCTGG: -0.213
GTTCCTAA: -0.131
GCTAGGAA: -0.19

Single results of other studies
HCM1 DNA-binding domain: Forkhead transcription factor HCM1, DNA-binding domain (HCM1, Saccharomyces cerevisiae, UniProt P25364, residues 41-213)
Chain of UniProt P25364 (41-213, looked up): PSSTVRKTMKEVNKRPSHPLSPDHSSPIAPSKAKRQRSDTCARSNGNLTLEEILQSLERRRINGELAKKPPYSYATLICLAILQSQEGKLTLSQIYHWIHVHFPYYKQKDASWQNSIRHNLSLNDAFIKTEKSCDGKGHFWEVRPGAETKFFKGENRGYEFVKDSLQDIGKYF
ATCAACA — relative binding free energy (HCM1 DNA-binding domain; SELEX-seq; double-stranded DNA, one strand shown, in vitro; not given, 7-bp core, flanks averaged; relative to: best-binding core, lower = stronger binding): 0.09 ddG/RT
PhoQ, residues 284 288 289 292 302 303 SACGEM — fold induction (PhoP, residues 12 14 15 18 19 NIMAP (Escherichia coli, UniProt P23836); Sort-seq, item: YFP reporter; E. coli; PhoQ-PhoP variant library, together with: 10 µM Mg2+; relative to: high Mg2+ state, higher = stronger signaling): 2.91
GTAAACA — relative binding free energy (HCM1 DNA-binding domain; SELEX-seq; double-stranded DNA, one strand shown, in vitro; not given, 7-bp core, flanks averaged; relative to: best-binding core, lower = stronger binding): 0 ddG/RT
GAATTTTTTTCCTACCACATGGCATAGATATTTTAGGTCTTGATTCGCTTGACGCTGCTG — fluorescence intensity (Centromere-binding protein 1, full length, N-terminal tag (CBF1, Saccharomyces cerevisiae, UniProt P17106, residues 1-351); protein-binding microarray; double-stranded DNA, one strand shown, in vitro; 0.8 µM, whole 60-bp probe, no competitor; higher = stronger binding): 963 a.u.

Excerpt of the above (single results of other studies):
GTAAACA — relative binding free energy (HCM1 DNA-binding domain; SELEX-seq; double-stranded DNA, one strand shown, in vitro; not given, 7-bp core, flanks averaged; relative to: best-binding core, lower = stronger binding): 0 ddG/RT
